Experimental data of several laboratories.
Every numbered part comes from another study and shows a few of its results, in no order. Changes are numbered by the printed parent chain.

Series 1 — target: CCND1, cyclin fold, Cln2 fusion (human); technique: yeast growth competition, sequencing; matrix: yeast; notes: weak parent motif; relative to: not given; direction: higher = stronger binding; endpoint: normalised enrichment score
Starting sequence: GMNC docking peptide (human); KNAKRNLSSEFAN
KNALRNLSSEFAN [K4L]: 0.242
KNAKRNLNSEFAN [S8N]: 0.838
KNAKRHLSSEFAN [N6H]: -0.00665
KIAKRNLSSEFAN [N2I]: 0.179
KNAKRNLSSIFAN [E10I]: 0.064
KNAKRNLSREFAN [S9R]: 0.846
KNAKRNLSSQFAN [E10Q]: 0.364
KNAKRNLRSEFAN [S8R]: 0.207
KNAKRYLSSEFAN [N6Y]: -0.403
KNAKRNLSEEFAN [S9E]: 0.879
KGAKRNLSSEFAN [N2G]: 0.897

Series 2 — technique: universal PBM; form: double-stranded DNA, one strand shown; matrix: in vitro; tested at: not given; direction: higher = stronger binding; endpoint: E-score
Target: Sal-like protein 4, full length isoform B (SALL4, Homo sapiens, UniProt Q9UJQ4-2, residues 1-616)
Notes: 8-mer, flanks averaged, mean of replicates
GCGATCAA: -0.0573
ATTGAACG: 0.158
GGAGAGCC: -0.209
AATTAACG: 0.226
AAGTATCT: 0.14
AATCTGGC: -0.118
GAATAAAA: 0.236
CAACTTTA: 0.202
GTTCTTGA: 0.0353
ACAAGGGA: 0.0359
ATTCAGAA: 0.102

Series 3 — technique: RNA Bind-n-Seq; form: RNA; matrix: in vitro; tested at: 365 nM; relative to: no-protein control; direction: higher = stronger binding; endpoint: RBNS enrichment (R)
Target: RNA binding protein fox-1 homolog 2, RRM domain, GST-SBP tag (RBFOX2, Homo sapiens, UniProt O43251-10, residues 100-194)
Notes: natural RNA segment, single round, ends assumed
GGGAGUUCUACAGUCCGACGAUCCACAAAUGCAACCCCUCCCCUACAAAUCCCAUCCUGAGCCAUUGCAGGGGUAGGGAAGCUCACCCCUCCCCCCCAAAGCCAUGUCACUGAAGAGGCCUGGGGGGUGGUAUUGGAAUUCUCGGGUGCCAA: 0.665
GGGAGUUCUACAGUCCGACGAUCAAGAUGCAAGGGAACAUGGGGUCAAAGGGGCCACCCACCACAUCUGAUGAUAUGUUAGUUUUGUUGUUCUUUGGGGUUUUAUUCUUCCAGGUAUGUUAUGCACUACAGCCUGGAAUUCUCGGGUGCCAA: 10.5
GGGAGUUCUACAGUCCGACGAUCAGAAAAUGAAAACACAGAAGCAAAGAGAAAUGUGGCACUUCACAUUUUAAACUACAGAUGGACUUGGUUUGAGGGAGGGGGAAUCACAGAUUUGGUGCUAAGUUAAUUAGUGGAAUUCUCGGGUGCCAA: 0.673
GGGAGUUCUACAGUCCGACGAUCCAGCUGCAUGUGAUUUUGUGAUAAAGUUCAGGUAACAGGAUGGGCAGUGAUGGAGAAUCACUGUUGAUUGAGAUUUUGGUUUCCAUGUGAUUUGUUUUCUUCAAUAGUCUUGGAAUUCUCGGGUGCCAA: 1.97
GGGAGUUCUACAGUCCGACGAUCUUCUGUUGGAAAGCCAGCAUGUGAGACCCUUCCACCAUGCCUCAUUCCAGCCCUCCUUGAGCUCACUACUUGACCAGACUGGGUAAUGCAUCACCUCUUCUCAUCAGUGGUGGAAUUCUCGGGUGCCAA: 1.94
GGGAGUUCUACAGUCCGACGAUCAAGAAUAUGAAGCCAUGAAACUUGUCAACAUGCUUGAUAAACUUUCCAGGAGAGCAGAUGUGAAGGACCUGCACCAGGAUGGUGGUUAGCAACAGUGGCCCGUGCCAAAGUGGAAUUCUCGGGUGCCAA: 0.724
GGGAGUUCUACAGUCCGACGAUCAUUAGAAAAUAUGAAGUCGCAUGCACUGGAUAUCUAUAUAUCAUUAGGUUUUUGUUGUGUUUUUGGUUAUGCUGUCCCCCUUCUCCUUGGGGAGAUAUUUGGGAGCAAACUGGAAUUCUCGGGUGCCAA: 1.84
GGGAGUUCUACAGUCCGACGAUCCUGGAAUGCAGAUGACAGUAUGGAAAGAAAGAAUAAUGAUUCUAUCUAAUAGGAAAGGAUUUCUUCUUUCUUUUUUAAAGAGUGGGUGGAUUUUCUCCCUUUUGUUUUGCUGGAAUUCUCGGGUGCCAA: 0.799
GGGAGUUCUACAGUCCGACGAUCCUGAGUGGUAUGGAUAACUGGGCAUCUCUAACCCAGGGCAAUCAGUAAGAACUAAUAACCUGUGUCUCCUAGACGAGUCAGGAUGGGAACUGACCUCUAGGAGAUUCUAGUGGAAUUCUCGGGUGCCAA: 0.766

Single results of other studies
PhoQ, residues 284 288 289 292 302 303 GASLAW
fold induction (PhoP, residues 12 14 15 18 19 LYHSL (Escherichia coli, UniProt P23836); Sort-seq, refers to: YFP reporter; E. coli; PhoQ-PhoP variant library, with: 10 µM Mg2+; relative to: high Mg2+ state, higher = stronger signaling): 3.32

Some of these lines once more (series 3):
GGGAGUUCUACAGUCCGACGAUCAAGAAUAUGAAGCCAUGAAACUUGUCAACAUGCUUGAUAAACUUUCCAGGAGAGCAGAUGUGAAGGACCUGCACCAGGAUGGUGGUUAGCAACAGUGGCCCGUGCCAAAGUGGAAUUCUCGGGUGCCAA: 0.724
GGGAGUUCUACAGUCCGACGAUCAUUAGAAAAUAUGAAGUCGCAUGCACUGGAUAUCUAUAUAUCAUUAGGUUUUUGUUGUGUUUUUGGUUAUGCUGUCCCCCUUCUCCUUGGGGAGAUAUUUGGGAGCAAACUGGAAUUCUCGGGUGCCAA: 1.84
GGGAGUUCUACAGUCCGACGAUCCAGCUGCAUGUGAUUUUGUGAUAAAGUUCAGGUAACAGGAUGGGCAGUGAUGGAGAAUCACUGUUGAUUGAGAUUUUGGUUUCCAUGUGAUUUGUUUUCUUCAAUAGUCUUGGAAUUCUCGGGUGCCAA: 1.97
